Measurements of several laboratories.
Each numbered part is a random draw from the data of one study; scales do not carry over between parts. Positions count from the first letter of the parent shown.

Set 1
Target: CCNE1, cyclin fold, Cln2 fusion (human)
Method: yeast growth competition, sequencing
Sample: yeast
Setting: weak parent motif
Relative to: not given
Reading: higher = stronger binding
Parent: ORC1 docking peptide (human); PRARKRLELGNLG
For `K5Y`, “normalised enrichment score” read 0.197.
`G10S` — result for “normalised enrichment score”: -0.0995.
For `N11S`, “normalised enrichment score” read 0.702.
`R6T`: “normalised enrichment score” 0.264.
`E8D` — result for “normalised enrichment score”: 1.5.
For `L9I`, “normalised enrichment score” read 0.565.
Under “normalised enrichment score”, `L9N` is recorded as 0.284.
`R6H` — result for “normalised enrichment score”: 0.769.
`R6L` — result for “normalised enrichment score”: 0.879.
For `R4I`, “normalised enrichment score” read 0.0277.
For `K5M`, “normalised enrichment score” read 0.557.

Set 2
Target: RNA binding protein fox-1 homolog 2, RRM domain, GST-SBP tag (RBFOX2, Homo sapiens, UniProt O43251-10, residues 100-194)
Method: RNA Bind-n-Seq
Molecule type: RNA
Sample: in vitro
Tested at: 365 nM
Setting: natural RNA segment, single round, ends assumed
Relative to: no-protein control
Reading: higher = stronger binding
Construct (chain): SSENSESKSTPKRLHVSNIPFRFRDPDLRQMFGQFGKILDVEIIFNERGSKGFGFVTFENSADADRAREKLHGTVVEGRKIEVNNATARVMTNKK
`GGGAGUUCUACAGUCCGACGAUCUCAGAAAUCCGCCUGCCUCUGCCUCCCAAGUGCUGGGAUUAAAGGCGUGCGCCACCUCCGCCCAGCUCAGAACUUCACUUUUAAAAGUAAUCUGUUCCCAGUGUGGUAUCUGGAAUUCUCGGGUGCCAA` — result for “RBNS enrichment (R)”: 0.281.
For `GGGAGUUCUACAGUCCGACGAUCAGUGCCUUACAAAUCCUAAGCUCAGAGAAAGUUAGCUCCAUUUCCGUUCCCAAGGGAGGGGCCUCUGAGGUCCUUCUGCCUUGUUGAUGAAGAGUGGUUGGUUGUAGAGCUGGAAUUCUCGGGUGCCAA`, “RBNS enrichment (R)” read 0.298.
`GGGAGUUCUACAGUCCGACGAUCAUUUUACUGGGGUGAUUCGGCUGUUGUCUUUGUGAAAUCCGGGGAAACAGAUCACUGAAAUUCAAAGAAAAUGUCUCUUAAGGUUCAUGUUUGUGGGAUUUUUUUUGGGGUGGAAUUCUCGGGUGCCAA`: “RBNS enrichment (R)” 0.955.
Under “RBNS enrichment (R)”, `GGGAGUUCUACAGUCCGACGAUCUAUAAAAGGUUCUGUUUUUAAAGGUGGAUUUUCAUUCCUCUGGGGACAGUGGUCGCCAAGACAUCUACAUUGUAAGAGAACACAGUGGAAGAUCCUGUCCUGAUUCUCAAUGGAAUUCUCGGGUGCCAA` is recorded as 0.366.
Under “RBNS enrichment (R)”, `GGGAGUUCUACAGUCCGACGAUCCUGGAAUGCUUGUGAGUCCGUUCCCACAGGCUCACAGUGUCAGGAGAGAGUGGCAGAUGCUCCAGUUUCACUUAAGCAGUGGUAAACGUUUGAAGGUUCGUUUUUUGUUGUGGAAUUCUCGGGUGCCAA` is recorded as 0.589.
Under “RBNS enrichment (R)”, `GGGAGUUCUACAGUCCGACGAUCCCGGAGGCCCCACGAGCAGGCCCCAGCAGUCACCGGCUCUGGUCUUGGGCCGGCCCCGGUGCCCACCUGUACCCCCACCUCGCCCAUUUGGCCGCGUGCACUGAGUGUCAUGGAAUUCUCGGGUGCCAA` is recorded as 0.414.
`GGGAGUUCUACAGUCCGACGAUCUUAUUUCAUAGCACCAGUAUUCAGGCUUUCAUGAACAUCAUUUUGGGGGAGCAAGACUUCAUCUGUAUGUACAUUCAGAGUCUUCCCAUAGCUCUUAAACCGUGUGGGUGUGGAAUUCUCGGGUGCCAA` — result for “RBNS enrichment (R)”: 0.313.

Set 3
Target: Centromere-binding protein 1, full length, His-tagged (CBF1, Saccharomyces cerevisiae, UniProt P17106, residues 1-351)
Sequence of UniProt P17106 (whole entry, looked up): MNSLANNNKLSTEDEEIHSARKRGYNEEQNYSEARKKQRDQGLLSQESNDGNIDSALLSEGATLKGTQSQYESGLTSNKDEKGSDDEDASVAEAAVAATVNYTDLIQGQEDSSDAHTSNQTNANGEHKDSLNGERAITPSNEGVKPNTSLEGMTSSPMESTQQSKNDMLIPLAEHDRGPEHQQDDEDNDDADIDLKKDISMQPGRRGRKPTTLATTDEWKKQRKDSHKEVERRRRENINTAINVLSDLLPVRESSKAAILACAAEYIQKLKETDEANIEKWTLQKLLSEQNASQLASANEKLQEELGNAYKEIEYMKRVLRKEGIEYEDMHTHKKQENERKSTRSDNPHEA
Method: competition protein-binding microarray
Molecule type: double-stranded DNA, one strand shown
Sample: in vitro
Tested at: 2 µM
Setting: whole 60-bp probe, lowest competitor level
Together with: Pho4 competitor, 0.05 µM
Reading: higher = stronger binding
`TATACGAATGTTACCCACGATGGCCGGAGTAGCTGTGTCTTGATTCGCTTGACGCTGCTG` gave a fluorescence intensity of 53.8 a.u.
For `CTTCAACAACAAGTGTCTGTGACGGCTTCAAGGGTCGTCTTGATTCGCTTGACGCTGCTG`, the fluorescence intensity was 84.2 a.u.
`CTAACGAAGGTTTGCTGCGTGGGTGACAAGCCAAGTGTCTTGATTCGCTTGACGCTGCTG` gave a fluorescence intensity of 68.7 a.u.
For `CAGATTAAGCCCCGCCACGTGGTGGCCAAGCCAGCTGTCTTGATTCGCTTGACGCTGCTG`, the fluorescence intensity was 608 a.u.
With `TGCGCAACAACTTGTCACAAGACTTTATGTCTAGAAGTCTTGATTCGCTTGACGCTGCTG` the fluorescence intensity was 194 a.u.
The fluorescence intensity of `CTAACGAAGGTTTGCAATGTGGGTGACAAGCCAAGTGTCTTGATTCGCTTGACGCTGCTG` is reported as 72.8 a.u.
For `TGCGCAACAACTTGACGCGTGGGTGTATGTCTAGAAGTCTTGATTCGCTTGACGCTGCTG`, the fluorescence intensity was 79.2 a.u.
With `CTTTCCCGATCTTTTCACGTGCCCTTAGCACATTTGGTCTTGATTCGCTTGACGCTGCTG` the fluorescence intensity was 1230 a.u.
For `ACCTTTCAGTTTCCGCGCGTGACTCGGATTTGGCGGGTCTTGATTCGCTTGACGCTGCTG`, the fluorescence intensity was 744 a.u.

Other studies, line by line
`PhoQ, residues 284 288 289 292 302 303 SLANIV` has a fold induction of 14.6 (PhoP, residues 12 14 15 18 19 SQCLL (Escherichia coli, UniProt P23836); Sort-seq, refers to: YFP reporter; E. coli; PhoQ-PhoP variant library, together with: 10 µM Mg2+; relative to: high Mg2+ state, higher = stronger signaling).
